Earlier results, collected from citations in different studies.
± marks the error that the study gave. The star is where a group is joined.

Under “Km or Ki”, `O=[P@]1(S)OC[C@H]2O[C@@H](n3cnc4cc(Cl)c(Cl)cc43)[C@H](O)[C@@H]2O1` is recorded as 18.8 µM (PDE4D; cyclic nucleotide hydrolysis, substrate or inhibitor, isothermal titration calorimetry).
With `C#Cc1cccc2c1[nH]c1cnc(C(=O)OC(C)(C)C)cc12` the selectivity ratio was 105 fold (GABAA receptor benzodiazepine site; binding; relative to: α1-containing over other subtypes).
With `tetrahydrofolate` the Km was 2400 µM (serine hydroxymethyltransferase, Leishmania donovani; substrate).
With `N=C(N)NCCC[C@H](N)C(=O)O` the Km was 21500 ± 900 µM (arginase Leishmania amazonensis; substrate).
`N[C@@H](CO)C(=O)O` has a Km of 1100 µM (serine hydroxymethyltransferase, Plasmodium chabaudi; substrate).
`COC1=CC(=O)O[C@@H](CCc2ccccc2)C1` gave an effective concentration of 870 µM (NF-κB; reporter gene and DNA binding, inhibitor; with: TNFα).
Under “duration of action”, `N=C(N)NCCC[C@@H]1NC(=O)[C@H](CCCNC(=N)N)NC(=O)[C@H](NC(=O)[C@H](Cc2ccccc2)NC(=O)CNC(=O)CNC(=O)[C@H](Cc2ccc(O)cc2)NCc2ccccc2)CC(=O)NC[C@@H](C(=O)N[C@@H](CCCNC(=N)N)C(=O)N2CCC[C@H]2C(=O)N[C@@H](CCCCN)C(N)=O)NC1=O` is recorded as 12 to 18 h (Kappa-type opioid receptor (Oprk1, Rattus norvegicus, UniProt P34975); antagonist; animal, systemic; dose not given).
The Km of `Boc-Gly-Lys-Arg-{AMC} (Boc-Gly-Lys-Arg-AMC; Boc = CC(C)(C)OC(=O)*; AMC = Cc1cc(=O)oc2cc(N*)ccc12)` is reported as 737 ± 150 µM (West Nile virus NS2B-NS3 protease; substrate; tripeptide substrate).
For `COC1C2OP(O)(=S)OCC2OC1n1c(Sc2ccc(Cl)cc2)nc2c(N)ncnc21` (stereo not drawn), “Km or Ki” read 2.02 µM (PDE1B; cyclic nucleotide hydrolysis, substrate or inhibitor, isothermal titration calorimetry).
`Cc1sc2nc(-c3ccc([N+](=O)[O-])cc3)[nH]c(=O)c2c1C` gave a fold resistance of about 50 fold (Gag-Pol polyprotein, reverse transcriptase RNase H (gag-pol, Human immunodeficiency virus 1, UniProt P03366, C879A); p66/p51 heterodimer; relative to: wild-type RT).
`Cc1cc(O)cc(C)c1C[C@H](N)C(=O)N[C@@H]1CCNc2ccc(Cc3cccc4ccccc34)cc21` has a stimulation of 15% (Delta-type opioid receptor (Oprd1, Rattus norvegicus, UniProt P33533); agonist; 10 µM; relative to: DPDPE).
`C=C1CC[C@@H]2[C@@H](C1)c1c(OC)cc(C(C)(C)CCCCCC)cc1OC2(C)C` gave a selectivity ratio of over 406 (Cannabinoid receptor 2 (CNR2, Homo sapiens, UniProt P34972); binding affinity; relative to: CB1 over CB2).
For `O[C@@H]1[C@H](O)[C@@H]2C[C@@H]2[C@H]1n1cnc2c(NCCc3ccccc3)nc(C#Cc3ccccc3)nc21`, the inhibition was 22 ± 5% (Adenosine receptor A2a (ADORA2A, Homo sapiens, UniProt P29274); radioligand binding; 10 µM).
`C[N+](C)(C)CCOC(N)=O` has a Km of 2800 ± 200 µM (acetylcholinesterase; concentration not given, with: acetylthiocholine reporter substrate).
`O=c1c2nc(Br)n([C@@H]3O[C@@H]4CO[P@@](O)(=S)O[C@H]4[C@H]3O)c2nc2[nH]c(-c3ccccc3)cn12`: “Km or Ki” 4.98 µM (PDE10; cyclic nucleotide hydrolysis, substrate or inhibitor, isothermal titration calorimetry).
With `O=[N+]([O-])[O-].[Ag+]` the inhibition was 28% (carbonic anhydrase, gill; enzyme activity; rainbow trout, freshwater; 10 µg/L, 48 h).
For `CC(C)(C)OC(=O)c1cc2c(cn1)[nH]c1ccccc12`, the efficacy was 99 ± 10% (GABAA receptor α2β3γ2; modulator, two-electrode voltage clamp; Xenopus oocytes; 1 to 10 µM, with: GABA at EC50; relative to: GABA response).
Under “concentration for complete inhibition”, `CN(C)C/C=C/C(=O)Nc1cccc(C(=O)Nc2ccc(Nc3nccc(-c4cccnc4)n3)cc2)c1` is recorded as 10 µM (IRAK1 kinase (via Pellino E3 ligase activity); Pellino E3 ligase activity, inhibitor; cells; with: interleukin-1 stimulation).
`COc1ccccc1N1CCN(CCN(C(=O)C2CCC(CF)CC2)c2ccccn2)CC1` (stereo not drawn): “hippocampus to cerebellum PET ratio” 10 (5-HT1A receptor, rhesus monkey; rhesus monkey; 90 min).
`Nc1ncnc2c1nc(Br)n2C1OC2COP(O)(=S)OC2C1O` (stereo not drawn): “Km or Ki” 37.7 µM (PDE1C; cyclic nucleotide hydrolysis, substrate or inhibitor, isothermal titration calorimetry).
`O=C1CC(=O)N(C2CCCC2)C(=O)N1CCc1cccc(Cl)c1` has a selectivity ratio of over 100 (Voltage-dependent L-type calcium channel subunit alpha-1D (Rattus norvegicus, UniProt P27732); relative to: IC50 CaV1.2 over IC50 CaV1.3).

Excerpt of the above:
The Km of `Boc-Gly-Lys-Arg-{AMC} (Boc-Gly-Lys-Arg-AMC; Boc = CC(C)(C)OC(=O)*; AMC = Cc1cc(=O)oc2cc(N*)ccc12)` is reported as 737 ± 150 µM (West Nile virus NS2B-NS3 protease; substrate; tripeptide substrate).
For `COC1C2OP(O)(=S)OCC2OC1n1c(Sc2ccc(Cl)cc2)nc2c(N)ncnc21` (stereo not drawn), “Km or Ki” read 2.02 µM (PDE1B; cyclic nucleotide hydrolysis, substrate or inhibitor, isothermal titration calorimetry).
